Published values collected from several papers.
Lines come from different studies, so protocols differ. Values joined by “and” are separate records of one study, mostly repeats; a detail may differ. ± gives the spread as reported.
Rbpj: Rbpj 53-474 (Mus musculus, UniProt P31266)
FGFR3 isoform IIIc: FGFR3 isoform IIIc (unknown, UniProt Q61851)
B1: FGF6 (Homo sapiens, UniProt P10767); chain SPAGTRANNTLLDSRGWGTLLSRSRAGLAGEIAGVNWESGYLVGIKRQRRLYCNVGIGFHLQVLPDGRISGTHEENPYSLLEISTVERGVVSLFGVRSALFVAMNSKGRLYATPSFQEECKFRETLLPNNYNAYESDLYQGTYIALSKYGRVKRGSKVSPIMTVTHFLPRI
B2: POL30 (Saccharomyces cerevisiae, UniProt P15873); Cy3 label; sequence looked up; chain MLEAKFEEASLFKRIIDGFKDCVQLVNFQCKEDGIIAQAVDDSRVLLVSLEIGVEAFQEYRCDHPVTLGMDLTSLSKILRCGNNTDTLTLIADNTPDSIILLFEDTKKDRIAEYSLKLMDIDADFLKIEELQYDSTLSLPSSEFSKIVRDLSQLSDSINIMITKETIKFVADGDIGSGSVIIKPFVDMEHPETSIKLEMDQPVDLTFGAKYLLDIIKGSSLSDRVGIRLSSEAPALFQFDLKSGFLQFFLAPKFNDEE
B3: TIMP3 24-144 (Homo sapiens, UniProt P35625); sequence looked up; chain CTCSPSHPQDAFCNSDIVIRAKVVGKKLVKEGPFGTLVYTIKQMKMYRGFTKMPHVQYIHTEASESLCGLKLEVNKYQYLLTGRVYDGKMYTGLCNFVERWDQLTLSQRKGLNYRYHLGCN
B4: Cbfa2t3 (Mus musculus, UniProt O54972); sequence looked up; chain MSQASTTTLESGALLSGPRGLQYGSPAHRKEKAAAMPDSPAEVKTQPRSTPPSMPPPPPTSSQGATRPPSFTPHTHGEDGPATSLPHGRFHGCLKWSMVCLLMNGSSHSPTAIHGAPSTPNGFSNGPATSSTASLSTQHLPPACGARQLSKLKRFLTTLQQFGSDISPEIGERVRTLVLGLVNSTLTIEEFHAKLQEATNFPLRPFVIPFLKANLPLLQRELLHCARLAKQTPAQYLAQHEQLLLDASATSPVDSSELLLEVNENGKRRTPDRTKENGSDRDPLHPDHLSKRSCTLSPAQRCSPSNGLPHPTPPPPPHYRLEDMAMAHHFRDSYRHPDPRELRERHRPLAIPGSRQEEVIDHRLTEREWAEEWKHLNSLLNCIMDMVEKTRRSLTVLRRCQEADREELNHWIRCYSDSEEGKKGPTPISARSLNSCSGPEGSQLDVHRDFTPRTLSGYMPEEIWRKAEEAVNEVKRQAMSELQKAVSDAERKAHELITTERAKMERALAEAKRQASEDALTVINQQEDSSESCWNCGRKASETCSGCNAARYCGSFCQHKDWEKHHHVCGQSLQGPAAAVADPLPGQPDATASPSEAGSAGPSRPCSPGPPGPLDAAVPR
B5: spoVID 501-575 (Bacillus subtilis, UniProt P37963); sequence looked up; chain ESDNSLYLTKLFTKEADEFSRMKICIVQQEDTIERLCERYEITSQQLIRMNSLALDDELKAGQILYIPQYKNSHA

MENVKKATAATTWMVPTAQ (L3MBTL3 52-70 T61A (Homo sapiens, UniProt Q96JM7-2); sequence looked up) — ΔH (Rbpj; ITC; peptide; pH 6.5, 25 °C, NaCl 150 mM): -11.4 kcal/mol
GLP-2 mature G4A, C-terminal amide — relative cAMP production (GLP2R (Homo sapiens, UniProt O95838); cAMP, agonist; baseline: GLP-2, higher = more cAMP): 109%
B1 (FGF6) — cell proliferation (FGFR3 isoform IIIc; cell proliferation, MTT; BaF3-FGFR3c; 20 nM, 48 h, together with: completely desulfated heparin 4.9 µg/mL; baseline: FGF 1 with heparin, higher = more proliferation): 5%
TFPI (Homo sapiens, UniProt P10646-1) — free factor Xa (F10 factor Xa; factor Xa inhibition; EA.hy926; 100 µg/mL total protein, final, methyl-β-cyclodextrin): 0.065 nM
CGA/TSHB, 125I label (Bos taurus) — PEG-precipitable radioactivity (TSHR (Sus scrofa, UniProt Q8SPP9); radioligand binding; solubilized porcine thyroid membrane; baseline: normal pooled IgG, higher = more bound tracer): 7930 cpm
VAC17 peptide around Thr240, pT240 (Saccharomyces cerevisiae) — melting temperature (DMA1 (Saccharomyces cerevisiae, UniProt P38823); ThermoFluor; together with: phospho-Thr240 peptide; higher = more stable): 45.6 °C
ITGAV/ITGB3 mature heterodimer (Homo sapiens) — cell spreading (FBN1 1527-1647 (Homo sapiens, UniProt P35555); cell spreading; BHK; 1 µM; higher = more spread cells): 20%
FGF8b (Homo sapiens) — cell proliferation (FGFR3 isoform IIIc; cell proliferation, MTT; BaF3-FGFR3c; 20 nM, 48 h, together with: 2-O desulfated heparin 4.9 µg/mL; baseline: FGF 1 with heparin, higher = more proliferation): 122%
FN1 intact plasma (Homo sapiens) — half saturation (THBS1 fragment (Homo sapiens); solid-phase binding): 0.7 µg/mL
fabF F132A (Escherichia coli) — condensation rate (acpP C12-acylated 1-78, C12 acyl on 4'-phosphopantetheine (Escherichia coli, UniProt P0A6A8); holo-AcpP formation, HPLC; 10 µM, together with: malonyl-CoA): 2.72 min⁻¹
F8 A2 subunit D666C — decay rate (F8 A1 and A3C1C2 dimer, factor VIIIa S1788C; FXa generation activity loss; 1.5 nM, 23 °C, disulfide-linked A2; higher = faster decay): 0.002 min⁻¹
B2 (POL30) — koff (REV1/RAD30 binary complex, Cy5 label (Saccharomyces cerevisiae); single-molecule TIRF; pH 7.5): 0.55 ± 0.02 s⁻¹
B3 (TIMP3 24-144) — Ki (ADAMTS4 213-519 (Homo sapiens, UniProt O75173); inhibitor, steady-state kinetics; 1 h, pH 7.5, 37 °C): 0.64 nM
MYBPC3 (Homo sapiens, UniProt Q14896) — molecule per partner (ACTC1 F-actin (Oryctolagus cuniculus); co-sedimentation; apparent): 0.73 ± 0.11 C2 per actin
UGT1A9 (Homo sapiens, UniProt O60656) — Vmax (O=c1c(O)c(-c2ccc(O)c(O)c2)oc2cc(O)ccc12; steady-state kinetics; pH 7.4, 37 °C): 0.00162 µmol/min/mg and 0.00262 µmol/min/mg
MENAKKATATTTWMVPTAQ (L3MBTL3 52-70 V55A (Homo sapiens, UniProt Q96JM7-2); sequence looked up) — ΔH (Rbpj; ITC; peptide; pH 6.5, 25 °C, NaCl 150 mM): -13.6 kcal/mol
STIM1 (Homo sapiens, UniProt Q13586) — temperature for half recovery (ORAI1 (Homo sapiens, UniProt Q96D31); I_CRAC recovery, whole-cell patch clamp; HEK293T): 36.9 °C
Syt1 (Mus musculus, UniProt P46096) — FRET efficiency change (Psen1 (Mus musculus, UniProt P49769); FLIM FRET; old mouse primary neurons; 15 min, together with: KCl 50 mM; baseline: no KCl, higher = more FRET): 1.5 fold
YASKGKKRNPGLKIPK (MAP2K6 residues 4-17 (Homo sapiens)) — IC50 (Mapk14, pT180, pY182 (Rattus norvegicus, UniProt P70618); kinase activity, inhibitor, competitive kinase inhibition assay; peptide; together with: ATP 1 mM): 16 µM
MMP2 fragment R252A/F297A (Homo sapiens) — hydrolysis rate (COL1A1/COL1A2 denatured, gelatin (Homo sapiens); DQ-gelatin fluorescence; 10 nM, 25 °C; higher = faster hydrolysis): 0.14 RFU/s
FGF1 (Homo sapiens, UniProt P05230) — cell proliferation (FGFR3 isoform IIIc; cell proliferation, MTT; BaF3-FGFR3c; 20 nM, 48 h, together with: chondroitin sulfate A 4.9 µg/mL; baseline: FGF 1 with heparin, higher = more proliferation): 2%
B4 (Cbfa2t3) — repression of reporter (Tal1 (Mus musculus, UniProt P22091); luciferase reporter; NIH 3T3; together with: Mtgr1; higher = stronger repression): 17.6 fold
B5 (spoVID 501-575) — relative binding (spoIVA (Bacillus subtilis, UniProt P35149); pull-down; together with: ATP 4 mM; baseline: unpolymerized SpoIVA without ATP, higher = more bound): 7 fold
plasminogen (UniProt P20918) — p-ERK (Plgrkt (Mus musculus, UniProt Q9D3P8); immunoblot; satellite cells; 15 min, together with: plasminogen 5 µg/mL; baseline: total ERK, higher = more phosphorylation): 2 fold
Pcsk9 fragment (Mus musculus) — bound PCSK9 (Ldlr (Mus musculus, UniProt P35951); ELISA; plasma; sham group): 36.6 ng/mL

A few entries again:
CGA/TSHB, 125I label (Bos taurus) — PEG-precipitable radioactivity (TSHR (Sus scrofa, UniProt Q8SPP9); radioligand binding; solubilized porcine thyroid membrane; baseline: normal pooled IgG, higher = more bound tracer): 7930 cpm
UGT1A9 (Homo sapiens, UniProt O60656) — Vmax (O=c1c(O)c(-c2ccc(O)c(O)c2)oc2cc(O)ccc12; steady-state kinetics; pH 7.4, 37 °C): 0.00162 µmol/min/mg and 0.00262 µmol/min/mg
